Measurements gathered from unrelated publications.
A part holds a random share of what one study measured. Values joined by “and” are separate records of one study, mostly repeats; a detail may differ. Numbers after ± are the reported error.
Chain of UniProt P10721 (whole entry, unmodified, looked up): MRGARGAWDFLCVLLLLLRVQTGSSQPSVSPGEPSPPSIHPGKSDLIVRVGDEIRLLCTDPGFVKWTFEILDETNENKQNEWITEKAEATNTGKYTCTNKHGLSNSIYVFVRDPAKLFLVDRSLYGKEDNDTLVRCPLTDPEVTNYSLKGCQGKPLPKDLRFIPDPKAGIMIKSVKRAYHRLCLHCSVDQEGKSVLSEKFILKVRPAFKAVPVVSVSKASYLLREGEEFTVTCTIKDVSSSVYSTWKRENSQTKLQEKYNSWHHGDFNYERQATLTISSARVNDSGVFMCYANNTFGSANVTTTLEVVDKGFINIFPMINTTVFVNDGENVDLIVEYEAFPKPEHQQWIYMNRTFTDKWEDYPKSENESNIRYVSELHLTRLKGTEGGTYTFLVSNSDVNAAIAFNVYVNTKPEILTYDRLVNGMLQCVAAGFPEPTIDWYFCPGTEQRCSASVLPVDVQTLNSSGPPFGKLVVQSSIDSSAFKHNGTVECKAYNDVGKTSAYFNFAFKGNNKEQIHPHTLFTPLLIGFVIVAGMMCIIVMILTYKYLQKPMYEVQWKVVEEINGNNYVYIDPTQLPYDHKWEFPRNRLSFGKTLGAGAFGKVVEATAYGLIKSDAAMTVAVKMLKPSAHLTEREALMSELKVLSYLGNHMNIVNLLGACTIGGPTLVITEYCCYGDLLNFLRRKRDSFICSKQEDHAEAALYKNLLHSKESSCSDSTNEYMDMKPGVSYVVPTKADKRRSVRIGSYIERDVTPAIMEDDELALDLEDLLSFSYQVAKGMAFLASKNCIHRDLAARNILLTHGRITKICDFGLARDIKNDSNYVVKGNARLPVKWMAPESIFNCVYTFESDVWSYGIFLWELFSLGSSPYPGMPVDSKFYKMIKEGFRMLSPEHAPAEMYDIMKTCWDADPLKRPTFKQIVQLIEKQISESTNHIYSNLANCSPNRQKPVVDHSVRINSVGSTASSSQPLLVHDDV
Chain of UniProt Q15569 (whole entry, looked up): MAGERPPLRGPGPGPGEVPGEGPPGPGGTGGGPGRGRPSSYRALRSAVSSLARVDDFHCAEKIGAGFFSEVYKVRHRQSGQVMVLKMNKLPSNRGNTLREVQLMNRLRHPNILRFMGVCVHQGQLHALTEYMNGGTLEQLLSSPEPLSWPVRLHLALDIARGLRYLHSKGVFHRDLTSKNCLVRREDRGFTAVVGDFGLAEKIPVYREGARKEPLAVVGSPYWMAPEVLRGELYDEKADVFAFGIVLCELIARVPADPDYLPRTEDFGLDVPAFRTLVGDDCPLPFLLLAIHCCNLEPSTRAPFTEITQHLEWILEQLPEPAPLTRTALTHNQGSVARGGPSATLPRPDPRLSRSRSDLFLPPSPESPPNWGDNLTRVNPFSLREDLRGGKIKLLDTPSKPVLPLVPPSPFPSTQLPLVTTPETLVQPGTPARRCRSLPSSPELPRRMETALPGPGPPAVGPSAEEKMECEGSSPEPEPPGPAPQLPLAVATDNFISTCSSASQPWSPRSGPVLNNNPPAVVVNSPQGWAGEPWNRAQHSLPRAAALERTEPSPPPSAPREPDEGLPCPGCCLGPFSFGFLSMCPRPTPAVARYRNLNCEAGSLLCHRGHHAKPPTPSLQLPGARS
Chain of UniProt O75747 (whole entry, looked up): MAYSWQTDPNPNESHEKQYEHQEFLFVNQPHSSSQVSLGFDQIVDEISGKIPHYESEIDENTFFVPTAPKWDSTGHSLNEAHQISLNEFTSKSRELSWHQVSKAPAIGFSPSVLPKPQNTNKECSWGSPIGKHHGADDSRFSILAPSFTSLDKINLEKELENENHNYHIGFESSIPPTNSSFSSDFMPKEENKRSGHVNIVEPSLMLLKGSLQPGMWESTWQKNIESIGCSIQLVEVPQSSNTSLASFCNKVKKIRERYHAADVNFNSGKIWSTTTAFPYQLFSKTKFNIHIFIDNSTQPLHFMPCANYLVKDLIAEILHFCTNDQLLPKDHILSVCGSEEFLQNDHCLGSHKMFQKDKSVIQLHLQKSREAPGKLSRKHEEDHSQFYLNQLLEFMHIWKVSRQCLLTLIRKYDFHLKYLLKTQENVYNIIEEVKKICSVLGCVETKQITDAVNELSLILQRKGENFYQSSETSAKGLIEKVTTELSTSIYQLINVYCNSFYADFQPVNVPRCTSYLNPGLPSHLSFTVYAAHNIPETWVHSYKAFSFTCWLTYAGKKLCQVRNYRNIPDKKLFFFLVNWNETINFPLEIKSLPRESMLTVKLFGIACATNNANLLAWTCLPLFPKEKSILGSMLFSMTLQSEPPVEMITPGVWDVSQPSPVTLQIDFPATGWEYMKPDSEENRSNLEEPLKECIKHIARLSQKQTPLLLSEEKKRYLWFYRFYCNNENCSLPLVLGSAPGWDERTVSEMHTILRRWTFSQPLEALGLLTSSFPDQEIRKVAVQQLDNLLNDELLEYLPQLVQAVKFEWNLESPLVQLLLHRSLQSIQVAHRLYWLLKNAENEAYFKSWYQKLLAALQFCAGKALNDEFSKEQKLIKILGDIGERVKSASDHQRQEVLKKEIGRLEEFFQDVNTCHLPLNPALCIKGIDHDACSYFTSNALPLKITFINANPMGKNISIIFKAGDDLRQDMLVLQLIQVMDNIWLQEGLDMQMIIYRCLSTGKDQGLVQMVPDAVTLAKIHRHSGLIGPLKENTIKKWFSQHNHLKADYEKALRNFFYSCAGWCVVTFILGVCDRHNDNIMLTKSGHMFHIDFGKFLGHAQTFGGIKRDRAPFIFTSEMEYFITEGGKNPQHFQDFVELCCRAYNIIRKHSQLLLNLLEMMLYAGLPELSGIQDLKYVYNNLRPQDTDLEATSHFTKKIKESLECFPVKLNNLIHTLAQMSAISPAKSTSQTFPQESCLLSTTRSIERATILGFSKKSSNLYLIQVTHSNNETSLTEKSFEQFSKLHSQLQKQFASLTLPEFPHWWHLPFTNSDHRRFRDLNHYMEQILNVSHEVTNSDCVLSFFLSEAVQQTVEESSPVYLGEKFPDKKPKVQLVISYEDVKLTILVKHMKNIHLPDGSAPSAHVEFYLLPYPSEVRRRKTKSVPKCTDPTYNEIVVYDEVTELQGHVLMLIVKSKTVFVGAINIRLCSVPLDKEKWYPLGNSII
Chain of UniProt Q8IWQ3 (whole entry, looked up): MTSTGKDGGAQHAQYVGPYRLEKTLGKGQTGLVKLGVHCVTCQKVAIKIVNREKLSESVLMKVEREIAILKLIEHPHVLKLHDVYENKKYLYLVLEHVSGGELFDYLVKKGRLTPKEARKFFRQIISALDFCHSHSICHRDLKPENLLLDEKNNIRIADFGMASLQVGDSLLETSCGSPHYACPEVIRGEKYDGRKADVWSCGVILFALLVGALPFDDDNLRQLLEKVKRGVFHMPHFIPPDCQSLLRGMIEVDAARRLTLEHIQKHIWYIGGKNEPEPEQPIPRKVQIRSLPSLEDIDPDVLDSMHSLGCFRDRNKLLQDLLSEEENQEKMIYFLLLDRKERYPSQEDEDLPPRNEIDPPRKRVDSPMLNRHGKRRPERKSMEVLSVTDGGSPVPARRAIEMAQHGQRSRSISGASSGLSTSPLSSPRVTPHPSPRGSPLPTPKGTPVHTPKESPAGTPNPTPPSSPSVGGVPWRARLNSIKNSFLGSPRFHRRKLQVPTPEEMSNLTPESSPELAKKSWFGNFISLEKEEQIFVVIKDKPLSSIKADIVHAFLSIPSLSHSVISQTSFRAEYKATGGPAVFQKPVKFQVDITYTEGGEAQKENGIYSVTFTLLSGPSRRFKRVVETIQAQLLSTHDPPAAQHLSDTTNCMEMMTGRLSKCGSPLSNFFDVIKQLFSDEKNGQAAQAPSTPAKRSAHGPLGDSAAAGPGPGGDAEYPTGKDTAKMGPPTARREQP

Study 1
Compound: COc1ccc(-c2c(Nc3ccccn3)[nH]c3c(C4=CCCCC4)c(-c4ccccc4)nn3c2=O)cc1
Host: cancer patients
Medium: plasma
Route: oral
dose | time | setting | Tmax, median
150 mg once daily | cycle 1 day 15 | multiple dosing | 2 h
50 mg once daily | cycle 1 day 15 | multiple dosing | 6 h
200 mg | cycle 0 day -3 | single dose | 4 h
400 mg once daily | cycle 1 day 15 | multiple dosing | 3 h
400 mg | cycle 0 day -3 | single dose | 5 h
100 mg once daily | cycle 1 day 15 | multiple dosing | 3 h

Study 2
SMILES: CN([C@@H]1CCc2c(CC(=O)O)c3cc(S(C)(=O)=O)ccc3n2C1)S(=O)(=O)c1ccc(F)cc1
Concentration: 1 µM
target | read-out | mode | method | baseline | remaining binding
NEK2 (Homo sapiens, UniProt P51955) | cell-free assay |  | competition with immobilised ligand |  | 100%
Insulin receptor (INSR, Homo sapiens, UniProt P06213) | cell-free assay |  | competition with immobilised ligand |  | 100%
ULK1 (Homo sapiens, UniProt O75385) | cell-free assay |  | competition with immobilised ligand |  | 92%
CDC42BPG (Homo sapiens, UniProt Q6DT37) |  | binder | KINOMEscan competition binding | DMSO | 93%
RIOK1 (Homo sapiens, UniProt Q9BRS2) | cell-free assay |  | competition with immobilised ligand |  | 100%
PIP4K2C (Homo sapiens, UniProt Q8TBX8) | cell-free assay |  | competition with immobilised ligand |  | 100%
MAP3K20 (Homo sapiens, UniProt Q9NYL2) | cell-free assay |  | competition with immobilised ligand |  | 80%
BRSK2 (Homo sapiens, UniProt Q8IWQ3) | cell-free assay |  | competition with immobilised ligand |  | 100%
ZAP70 (Homo sapiens, UniProt P43403) | cell-free assay |  | competition with immobilised ligand |  | 100%
TGFBR1 (Homo sapiens, UniProt P36897) | cell-free assay |  | competition with immobilised ligand |  | 100%
MAPK8 (Homo sapiens, UniProt P45983) | cell-free assay |  | competition with immobilised ligand |  | 90%
TESK1 (Homo sapiens, UniProt Q15569) | cell-free assay |  | competition with immobilised ligand |  | 73%
PIK3CA (Homo sapiens, UniProt P42336, I800L) | cell-free assay |  | competition with immobilised ligand |  | 72%
PIP5K1C (Homo sapiens, UniProt O60331) | cell-free assay |  | competition with immobilised ligand |  | 100%
TLK2 (Homo sapiens, UniProt Q86UE8) | cell-free assay |  | competition with immobilised ligand |  | 100%
CDKL2 (Homo sapiens, UniProt Q92772) | cell-free assay |  | competition with immobilised ligand |  | 100%
KIT (Homo sapiens, UniProt P10721, V559D) | cell-free assay |  | competition with immobilised ligand |  | 92%
CDK18 (Homo sapiens, UniProt Q07002) | cell-free assay |  | competition with immobilised ligand |  | 100%
HIPK4 (Homo sapiens, UniProt Q8NE63) | cell-free assay |  | competition with immobilised ligand |  | 100%
PIK3C2G (Homo sapiens, UniProt O75747) | cell-free assay |  | competition with immobilised ligand |  | 82%
PRKCQ (Homo sapiens, UniProt Q04759) | cell-free assay |  | competition with immobilised ligand |  | 78%
FGFR3 (Homo sapiens, UniProt P22607) | cell-free assay |  | competition with immobilised ligand |  | 100%
ACVRL1 (Homo sapiens, UniProt P37023) | cell-free assay |  | competition with immobilised ligand |  | 100%
MARK1 (Homo sapiens, UniProt Q9P0L2) | cell-free assay |  | competition with immobilised ligand |  | 89%
NUAK1 (Homo sapiens, UniProt O60285) | cell-free assay |  | competition with immobilised ligand |  | 100%

Study 3
Target: Tyrosine-protein kinase receptor TYRO3 (TYRO3, Homo sapiens, UniProt Q06418)
Chain of UniProt Q06418 (whole entry, looked up): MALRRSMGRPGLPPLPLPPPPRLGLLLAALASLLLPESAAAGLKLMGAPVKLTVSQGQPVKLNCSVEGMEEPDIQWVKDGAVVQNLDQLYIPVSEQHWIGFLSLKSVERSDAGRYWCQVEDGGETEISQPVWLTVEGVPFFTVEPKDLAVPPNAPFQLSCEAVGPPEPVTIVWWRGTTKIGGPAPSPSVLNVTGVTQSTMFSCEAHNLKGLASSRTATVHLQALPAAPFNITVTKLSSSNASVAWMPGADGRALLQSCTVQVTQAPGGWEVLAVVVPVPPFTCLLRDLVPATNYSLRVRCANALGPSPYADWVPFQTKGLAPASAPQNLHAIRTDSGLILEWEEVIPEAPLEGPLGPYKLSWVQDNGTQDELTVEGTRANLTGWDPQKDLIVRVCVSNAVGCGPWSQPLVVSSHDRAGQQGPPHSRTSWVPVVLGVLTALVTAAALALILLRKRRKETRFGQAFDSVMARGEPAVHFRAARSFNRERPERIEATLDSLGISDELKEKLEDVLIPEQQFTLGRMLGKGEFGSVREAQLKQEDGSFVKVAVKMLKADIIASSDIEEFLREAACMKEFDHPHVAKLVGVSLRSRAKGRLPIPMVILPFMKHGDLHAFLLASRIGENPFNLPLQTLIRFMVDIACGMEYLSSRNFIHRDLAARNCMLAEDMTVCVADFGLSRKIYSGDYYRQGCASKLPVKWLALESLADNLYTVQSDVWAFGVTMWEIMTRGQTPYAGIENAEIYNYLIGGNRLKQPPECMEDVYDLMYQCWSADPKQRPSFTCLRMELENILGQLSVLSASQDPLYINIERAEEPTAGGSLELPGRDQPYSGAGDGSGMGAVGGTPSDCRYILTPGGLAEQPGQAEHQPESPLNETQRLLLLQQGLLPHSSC
Read-out: enzyme activity
Mode: inhibitor
Concentration: 0.5 µM
Baseline: control
Compound | remaining activity [%]
COc1ccc(COc2ccc(Cc3cnc(N)nc3N)cc2OC)cc1 | 110
O=Nc1c(-c2c(O)[nH]c3cc(Br)ccc23)[nH]c2ccccc12 | 81.6
O=C1Nc2ccc(Br)cc2/C1=C/c1cc2c([nH]1)CCCC2 | 104
COc1cccc(-c2cc(=O)c3ccccc3o2)c1N | 96.9
O=C1NC(=O)c2c1c1c3ccccc3[nH]c1n1cncc21 | 88.8
O=c1cc(N2CCOCC2)oc2c(-c3ccccc3)cccc12 | 107

Study 4
Host: human
Medium: microsomes or S9
Concentration: 2 µM
Time: 0.5 h
Compound | remaining compound [%]
COc1ccc(N)cc1-n1nnnc1-n1cccn1 | 54.3
O=C(c1ccccc1C1CCNC1)N1CCC2(C=Cc3ccccc32)CC1 (centres unmarked) | 88
Cc1ccc(N2C(=O)c3[nH]nc(C)c3C2c2ccc(F)cc2)cc1 (centres unmarked) | > 99
CCN(Cc1nc(-c2cccs2)no1)C(=O)C(C)Oc1cc(C)c(Cl)c(C)c1 (centres unmarked) | < 1
CC(C)n1c(=O)c2cn(S(=O)(=O)c3ccc(C4CCCCC4)cc3)nc2n(C(C)C)c1=O | > 100
Cc1ccc(Nc2cc(N3CCN(c4oc(C)nc4C#N)CC3)ncn2)cc1 | 6.26
CCC(=O)N1CCC(N(C(=O)COC)C2CCOCC2)CC1 | 93.1
CC(NCc1cccc(OCc2cccnc2)c1)c1ccc2c(c1)OCCCO2 (centres unmarked) | 0.273

Study 5
Structure (SMILES): CC(=O)N[C@@H](Cc1c[nH]c2ccccc12)C(=O)N[C@@H](CCC(=O)C=[N+]=[N-])C(=O)OC(C)C
Host: mouse
Medium: EL4 tumour
Dose: dose not given
measured | normalized intensity
tryptophan | -0.0618 and 0.0473 and 0.11 and 0.047 and 0.0806 and 0.0625
nicotinamide | -0.121 and 0.009 and -0.016 and -0.148 and -0.026 and 0.013
guanosine | -0.0372 and 0.052 and -0.0693 and -0.207 and -0.0975
glutamine | 0.0833 and 0.0245 and 0.09 and 0.0813 and 0.0859 and 0.154
citrate | -0.218 and -0.29 and -0.231 and 0.125 and 0.0412 and 0.138

Other studies, line by line
Compound | target or system | assay | system | setting | endpoint | value
CN(C(=O)c1ccn2ncc(-c3ccc(C(N)=O)cc3)c2c1)c1ccc(C#N)cn1 | Phosphatidylinositol 4-kinase (Cryptosporidium parvum, UniProt Q5CVD3) | enzyme activity, inhibitor, ADP-Glo |  | wild type | IC50 | 14.8 nM
OCCN1CCN(CCCN2c3ccccc3Sc3ccc(Cl)cc32)CC1 |  |  | mouse, serum | dose not given | serum cholesterol | 99.5 ± 11.2 mg/dL
CC(C)n1cnc(-c2ccc(F)cc2)c1-c1ncc(C(=O)Nc2ccc(N3CCN(C)CC3)cc2)[nH]1 |  |  | human, idiopathic pulmonary fibrosis | 60 mg once daily, trial, treatment-emergent | patients with Fatigue | 0%

A few entries again (study 4):
Compound | remaining compound [%]
O=C(c1ccccc1C1CCNC1)N1CCC2(C=Cc3ccccc32)CC1 (centres unmarked) | 88
Cc1ccc(N2C(=O)c3[nH]nc(C)c3C2c2ccc(F)cc2)cc1 (centres unmarked) | > 99
CCN(Cc1nc(-c2cccs2)no1)C(=O)C(C)Oc1cc(C)c(Cl)c(C)c1 (centres unmarked) | < 1
